Results pooled from the literature.
Every numbered part comes from another study and shows a few of its results, in no order.

Block 1
Target: RING finger protein unkempt homolog, zinc fingers 1-6, GST-SBP tag (UNK, Homo sapiens, UniProt Q9C0B0, residues 30-357)
Sequence of UniProt Q9C0B0 (30-357, looked up): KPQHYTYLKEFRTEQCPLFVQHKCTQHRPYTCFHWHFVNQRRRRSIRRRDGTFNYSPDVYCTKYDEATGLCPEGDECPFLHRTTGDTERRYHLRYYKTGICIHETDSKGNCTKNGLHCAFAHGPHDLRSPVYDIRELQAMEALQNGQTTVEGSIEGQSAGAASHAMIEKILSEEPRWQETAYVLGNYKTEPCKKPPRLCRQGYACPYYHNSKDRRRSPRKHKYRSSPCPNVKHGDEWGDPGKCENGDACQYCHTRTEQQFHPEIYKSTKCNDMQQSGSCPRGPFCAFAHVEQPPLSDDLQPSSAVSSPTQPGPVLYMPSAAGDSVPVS
Technique: RNA Bind-n-Seq
Molecule type: RNA
Sample: in vitro
Concentration: not given
Setting: RNA with constant flanks, human and mouse sites, ends assumed
Reference: input RNA pool
Reading: higher = stronger binding
Endpoint: bound/input enrichment
Shared flanks, not repeated: GGGAGUUCUACAGUCCGACGAUC … CAACAGAGGAUUGAGCAUCA
CUGUGCUUUCUCAUAUUUAAUUUGCUGUUUUUAAGAUAUUCCAACCUAGAGUUUUUGAUGGAACUGAUAUAUUGACAGUUCUCACCGAAGUCCUUUUAUAAAGAAUUGCUACUCCAAUAU: 4.88 ratio
AAUGGUACUUCAGCAGCACUUCGUGAAACUGGGGUUAUUGAAAAACUCUUGACCUCUUACGGAUUCAUUCAGUGUUCAGAACGGCAAGCUAGACUUUUCUUCCACUGUUCACAAUAUAAU: 0.22 ratio
ACUUCUGGAGGUGGGUUGGACCUCCGCGGAAUGUCUAGCUUCCAAACUUUGGCUGUUGGUAUUAGAGGCAGAUUUUCUUCUCGAGUCUCUCCUGCCUUGGAUGGGCCUCAAUAGGAGUGG: 0.532 ratio
GAGGACCUGGCCACCUACGAGCAGAAACUCCGUGAGUGGCACCUGGAGCGGGUGCAGUUGAUCCAGAGGGAGCAGGAACAGAGGGAGAAGGCCAAGCAAGAGUACCAGGCGCUGAGUGCG: 0.302 ratio
UACUUACCUCUUGCAAAAAAAAGAAAAAAGAAAAAAGUUCAUUUAUUCAUUCUGUUUCUAUAUAGCAAAACUGAAUGUCAAAAGUACCUUCUGUCCACACACACAAAAUCUGCAUGUAUU: 0.471 ratio
GAUGGAGCCGUCUUCUUUAACAAGGAAAGAACCAGAAACAUUGUUAAGUUUGACUUGAGGACUAGAAUCAAGAGCGGCGAGGCUAUCAUCAACUAUGCCAACUACCACGAUACGUCACCC: 0.108 ratio
GGAGCCAGACAUCUUGAGAGUGAAAAACUUGCUCAAAUAUUGGCAGCCAGAGAAUUGGAAAUUAAACAGAUUCCAUCUGAUGGUCACUGUAUGUAUGGAGCACUUGAGGAUCAGCUGAGA: 0.116 ratio

Block 2
Target: TAR DNA-binding protein 43, full length, His tag (TARDBP, Homo sapiens, UniProt Q13148, residues 1-414)
Technique: RNA Bind-n-Seq
Molecule type: RNA
Sample: in vitro
Concentration: 20 nM
Setting: 6-mer, flanks averaged, single round
Added: 150 mM LiCl
Reference: input library
Reading: higher = stronger binding
Endpoint: 6-mer enrichment (R)
ACUGUA: 1
AAGAUC: 0.812
CAGUUG: 0.979
CAGCCA: 0.901
AUGUGG: 1.35
AAUGUC: 0.911
UGUUUC: 1.17
AGUAGG: 1.04

Block 3
Target: Sal-like protein 4, full length isoform A (SALL4, Homo sapiens, UniProt Q9UJQ4, residues 1-1053)
Sequence of UniProt Q9UJQ4 (whole entry, looked up): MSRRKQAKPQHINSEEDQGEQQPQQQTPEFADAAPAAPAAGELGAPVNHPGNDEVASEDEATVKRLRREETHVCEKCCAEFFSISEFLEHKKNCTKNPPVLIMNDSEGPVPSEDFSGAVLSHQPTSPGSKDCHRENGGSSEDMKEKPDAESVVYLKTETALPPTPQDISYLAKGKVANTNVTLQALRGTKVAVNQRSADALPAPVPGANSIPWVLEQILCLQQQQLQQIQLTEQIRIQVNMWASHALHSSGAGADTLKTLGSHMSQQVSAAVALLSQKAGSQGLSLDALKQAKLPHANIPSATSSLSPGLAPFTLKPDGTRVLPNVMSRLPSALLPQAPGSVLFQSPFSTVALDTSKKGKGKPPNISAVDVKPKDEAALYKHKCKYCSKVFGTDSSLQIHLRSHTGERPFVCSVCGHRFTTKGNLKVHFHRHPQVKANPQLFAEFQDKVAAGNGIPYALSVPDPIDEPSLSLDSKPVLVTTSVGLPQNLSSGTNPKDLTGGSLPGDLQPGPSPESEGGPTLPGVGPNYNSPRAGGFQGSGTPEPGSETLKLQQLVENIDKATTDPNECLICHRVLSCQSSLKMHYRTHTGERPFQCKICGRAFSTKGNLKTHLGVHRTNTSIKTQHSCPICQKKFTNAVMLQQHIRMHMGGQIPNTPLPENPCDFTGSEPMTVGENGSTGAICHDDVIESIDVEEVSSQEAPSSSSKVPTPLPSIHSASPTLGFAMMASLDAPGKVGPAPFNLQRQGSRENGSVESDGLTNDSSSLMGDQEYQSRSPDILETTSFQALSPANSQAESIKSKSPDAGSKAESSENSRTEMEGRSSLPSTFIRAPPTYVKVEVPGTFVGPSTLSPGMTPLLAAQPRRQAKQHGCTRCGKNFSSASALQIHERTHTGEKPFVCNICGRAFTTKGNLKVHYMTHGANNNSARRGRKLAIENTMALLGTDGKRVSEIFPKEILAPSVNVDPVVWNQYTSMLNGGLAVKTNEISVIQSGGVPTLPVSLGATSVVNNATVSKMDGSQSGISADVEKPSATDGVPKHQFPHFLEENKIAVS
Technique: universal PBM
Molecule type: double-stranded DNA, one strand shown
Sample: in vitro
Concentration: 600 nM
Setting: 8-mer, flanks averaged, mean of replicates
Reading: higher = stronger binding
Endpoint: E-score
ACGGACTA: 0.00842
GCATATCC: 0.172
GCTTCAAC: -0.0992
GCAATCTA: 0.117
AATAAGCA: 0.23
CAAATCCG: 0.0144
ATGGAGTG: -0.0709

Mixed results
PhoQ, residues 284 288 289 292 302 303 NLGVHL
fold induction (PhoP, residues 12 14 15 18 19 TPWLV (Escherichia coli, UniProt P23836); Sort-seq, refers to: YFP reporter; E. coli; PhoQ-PhoP variant library, added: 10 µM Mg2+; reference: high Mg2+ state, higher = stronger signaling): 6.23

A few entries again (block 2):
CAGCCA: 0.901
AUGUGG: 1.35
AAUGUC: 0.911
